# Measured values gathered from unrelated publications.
# Numbered parts are unrelated; each lists some results of a single study.

# Study 1
# Target: Histone acetyltransferase KAT6A, winged helix 1, GST fusion (KAT6A, Homo sapiens, UniProt Q92794, residues 1-85)
# Technique: protein binding microarray
# Molecule type: double-stranded DNA, one strand shown
# Medium: in vitro
# Concentration: not given
# Setting: 8-mer, flanks averaged, mean of 2 arrays, mostly near background
# Reference: not given
# Direction: higher = stronger binding
# Residues (chain): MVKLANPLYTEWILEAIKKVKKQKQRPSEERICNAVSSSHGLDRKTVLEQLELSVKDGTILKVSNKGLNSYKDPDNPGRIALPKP
Strand,E-score
AGCACACG,0.00509
CGATGCTA,0.0762
CATGCCAG,-0.163
GCTCAACC,-0.103
TCTGTTAA,-0.0775
AAGCCGGC,0.313
AGAGTACG,0.0738
CAAGCCAC,-0.159
GTAAACCA,0.0556
TCATCGAA,-0.167
GGCGATTA,0.228
AGTCATGA,-0.111
GGCTAGCC,0.029
CTAACTAA,-0.00874
GCCCGTCC,0.328
CCTGAGGC,0.0191

# Study 2
# Target: RNA binding protein fox-1 homolog 2, RRM domain, GST-SBP tag (RBFOX2, Homo sapiens, UniProt O43251-10, residues 100-194)
# Technique: RNA Bind-n-Seq
# Molecule type: RNA
# Medium: in vitro
# Concentration: 365 nM
# Setting: natural RNA segment, single round, ends assumed
# Reference: no-protein control
# Direction: higher = stronger binding
# Target sequence (chain): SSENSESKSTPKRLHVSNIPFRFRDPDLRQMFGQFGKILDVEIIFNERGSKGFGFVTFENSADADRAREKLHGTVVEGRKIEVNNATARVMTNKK
Strand,RBNS enrichment (R)
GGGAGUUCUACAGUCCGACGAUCGGAGACCGAGGGCUUUGGACAGGAGUACCGAGGCCGCCCCUCCCACGCCCCCCAGCGCACAUGUAGUCCUGAGUCCUCCCUGCCUGAGAGGCCACUGGCCCCGCAGCCCUUGGAAUUCUCGGGUGCCAA,0.263
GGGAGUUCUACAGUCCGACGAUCCAUUUGGUUUAAGCAGGAAUCCUAGAAGCAAAUGGAUGGGGAUAAGAAUAGGUCAUUUUCUAUUCACCAUCCUUUACUAUUAAGGGAAAGGAAAAGAACACUAGCUAAGGUGGAAUUCUCGGGUGCCAA,0.392
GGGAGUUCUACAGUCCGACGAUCAGACAGACUGCGAAUCACUUUUCUGCUGUGAGGGUGAUGGUGCCUGAUGCGGUGUCUCGCCUAUCUCCUUAUUUAAGCCCUUAACUCCUUGCCCUUUGAGAGUGUCCAUUUGGAAUUCUCGGGUGCCAA,0.23
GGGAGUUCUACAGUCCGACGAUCGAUGUUUGUAAUUUUCAUGAAAAUGUGUGAUUUUCGUUUGUGAUAUGAAAGAUCAUUAAUCAAAGAAUAAGGAAGAAACAAGGUAAAACAGUCCUAAAAUGAUGGAACUAUGGAAUUCUCGGGUGCCAA,0.488
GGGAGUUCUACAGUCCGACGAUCAAAUGAAAUAUUUCAAAGACUGAAUAUUUUCAAAGAAAAUGAAUAAUUCAUUGCCCUUGUGAUUUAGAAGAUUAUAACAGCUGUAUUUCAUAUUUGCCUCCUUAUAUAUAUGGAAUUCUCGGGUGCCAA,0.451
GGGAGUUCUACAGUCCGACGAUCUCAAGAGUCAAACUGUGUGAGAAAAGCCAAAGAUUUUUUUUUGAGUCCUUUUGAAGACAGCUAGCUAAAUUUGCCUGCCAAAAGAUGUCAAUUAUUGAAUUGAUACCUGUUGGAAUUCUCGGGUGCCAA,0.639
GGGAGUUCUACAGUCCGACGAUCUUGUGACCGUUAGUCUCUAAGCUUUACCAGGAGCAGCCUGGGUUCAGCCAGUCAGUGACUGGUGGGUUUGAAUCUGCACUUAUCCCCACCACCUGGGGACCCCCUUGUUGUGGAAUUCUCGGGUGCCAA,0.256
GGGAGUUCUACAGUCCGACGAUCUUGUAGACUUUGGUAGUGCAACAUAUGAUGACGAACAUCACAGUACAUUGGUAUCUACAAGACAUUAUAGAGCACCUGAAGUUAUUUUAGCCCUAGGGUGGUCCCAACCAUGGAAUUCUCGGGUGCCAA,0.285
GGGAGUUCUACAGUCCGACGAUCCGUGUACCCUAGCUCCCCAUCACUGCGCGCCCUCCAAGCUAGAGAGAUGGGACCCCAGGGGGGGUUAGAGCUGGGUGUCCCGAAAACCCAGGCUGGGGCUAUGCGCCGUCUGGAAUUCUCGGGUGCCAA,0.359
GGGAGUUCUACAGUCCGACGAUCUAUCUGAAUGUCUCAAUCCAAAACUUGAAGCUCUUUAGACCAAGAACUAGGGAGAGGAAAAAGGAGCUCAUCUCUCAGCCCCUUCUUCAUAGCAUUUACAGCCCCGGGCUUGGAAUUCUCGGGUGCCAA,0.854
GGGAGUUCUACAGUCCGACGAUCUUUCCUCUCUGUAGAGGGAUGACUGACAGUUUUAUCAAUUCUCCUCACCAGGGUUGACUGCCUUCAGGAAAUGCUGGCCCCAAAGGAUUUGAGGAAAACUUGACUGUCAGUGGAAUUCUCGGGUGCCAA,0.22
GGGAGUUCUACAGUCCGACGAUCAAUAAACCACAAAUCCACCGUUUCUAUGUAGCUUGUAUUUGUAAAGUCUGAGUUUACCGUCUGAAUGUAAAGUUCCGUGUUGUCCGCUCACGACGGAAGUGAAGAAGAUAUGGAAUUCUCGGGUGCCAA,0.704

# Study 3
# Target: Interferon regulatory factor 5, full length, phosphomimetic (IRF5, Homo sapiens, UniProt Q13568-2, residues 1-514, K96S/S451D/S453D/S456D/S462D)
# Technique: protein-binding microarray
# Molecule type: double-stranded DNA, one strand shown
# Medium: in vitro
# Concentration: 250 nM
# Setting: 60-bp whole probe
# Together with: salmon DNA 0.4 mg/ml
# Reference: random background probes
# Direction: higher = stronger binding
# Shared flanks, not repeated: GCCTAGCAC … GTCTTGATTCGCTTGACGCTGCTG
Strand,log fluorescence [z-score]
GACGCTATCGGTATCGGGACGTGCTAG,6.83
GACGGTTTCGGGGTTCGGGACGTGCTA,5
TTAGGACTGCGGTATCGGTTAGTGCTA,3.11
GACGGACTCCTTTTCCTGACGTGCTAG,-0.174
TTAGGTATCGCGTATCGGTTAGTGCTA,3.66
AGGTTTCTATATTTGCTTCAGTGCTAG,3.32
TCACCTTTTCTTTACTGACTGTGCTAG,0.789
TTAGATATCTGTTTCGATTAGTGCTAG,8.5
GACGGACTGGGTATTGGGACGTGCTAG,-0.737
TTAGGTTTCCTTATCCTTTTGTGCTAG,1.21
TTAGCTATCGGGACTGGGTTAGTGCTA,2.17
TTAGGTTTCGGGTGTCGGTTAGTGCTA,8.28
TTAGAACTGGGGTTTCTATTAGTGCTA,0.736
GACGGTTTCGGACTTGGGACGTGCTAG,3.68
TTAGATTTCGGTCTCGATTAGTGCTAG,8.03
TTAGGTCTCGGTTTCGGATAGTGCTAG,4.44

# Study 4
# Target: Ras GTPase-activating protein-binding protein 1, RRM domain (G3BP1, Homo sapiens, UniProt Q13283)
# UniProt Q13283, sequence (whole entry, looked up): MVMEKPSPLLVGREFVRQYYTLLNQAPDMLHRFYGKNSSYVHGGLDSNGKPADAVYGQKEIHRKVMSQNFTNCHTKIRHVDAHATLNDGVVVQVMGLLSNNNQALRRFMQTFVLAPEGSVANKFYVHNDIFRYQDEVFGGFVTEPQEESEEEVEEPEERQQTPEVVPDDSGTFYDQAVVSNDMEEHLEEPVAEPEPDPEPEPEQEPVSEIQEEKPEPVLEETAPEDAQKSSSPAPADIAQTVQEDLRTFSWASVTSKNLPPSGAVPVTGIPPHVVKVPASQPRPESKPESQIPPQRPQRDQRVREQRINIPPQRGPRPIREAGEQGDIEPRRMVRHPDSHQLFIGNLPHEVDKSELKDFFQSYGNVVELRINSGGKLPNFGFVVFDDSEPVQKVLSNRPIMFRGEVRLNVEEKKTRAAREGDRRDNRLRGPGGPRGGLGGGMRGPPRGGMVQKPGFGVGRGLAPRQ
# Technique: RNA Bind-n-Seq
# Molecule type: RNA
# Medium: in vitro
# Concentration: 1 µM
# Setting: whole 134-nt RNA, ends assumed
# Together with: 150 mM KCl
# Reference: input library
# Direction: higher = stronger binding
Strand,log2 enrichment
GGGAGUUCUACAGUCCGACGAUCGUCCUGUGCUACACAUCGUAUGUACCGAAUCGGGGUUUUUGGGGUUUUUGGGUUUUUGGAAAGUAUUAUGUUACGCCGUUCGGAUCUGCAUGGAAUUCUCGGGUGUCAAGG,-0.303
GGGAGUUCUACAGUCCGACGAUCUCAAGUCCUGUGCUACACAUCGUAUGUACCGAAUCGGGGAAAGGAAAGGGAAAGGAAAGUAUUAUGUUACGCCGUUCGGAUCUGCACUUCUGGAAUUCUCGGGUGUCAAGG,-0.317
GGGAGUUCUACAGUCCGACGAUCCUCAAGUCCUGUGCUACACAUCGUAUGUACCGAAUCGGGGCGGGGCGGGGCGGAAAGUAUUAUGUUACGCCGUUCGGAUCUGCACUUCCAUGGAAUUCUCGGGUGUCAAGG,0.0417
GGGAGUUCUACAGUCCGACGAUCCUGUGCUACACAUCGUAUGUACCGAAUCGGGGAAAAAAAGGAAAAAAAGGGAAAAAAAGGGAAAGUAUUAUGUUACGCCGUUCGGAUCUGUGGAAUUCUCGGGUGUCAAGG,0.14
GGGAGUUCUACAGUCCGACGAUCUCCUGUGCUACACAUCGUAUGUACCGAAUCGGAAAAAAAGGUUUUUUUGGAAAAAAAGGAAAGUAUUAUGUUACGCCGUUCGGAUCUGCAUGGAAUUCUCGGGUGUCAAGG,-0.279
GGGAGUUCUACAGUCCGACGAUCUGGAUCAAGAGGAAGUAAAAAGAAUUACCAGUCACAGGCUGACAUUCCCAUUCGGUCUCCCUUUGGUAUUGUGAAAGCAUCCUGGCUACCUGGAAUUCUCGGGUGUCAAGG,-0.214
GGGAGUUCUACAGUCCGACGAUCGUCCUGUGCUACACAUCGUAUGUACCGAAUCGGGUUUUUGGGUUUUUUUGGGUUUGGGAAAGUAUUAUGUUACGCCGUUCGGAUCUGCACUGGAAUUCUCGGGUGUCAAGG,-0.0262
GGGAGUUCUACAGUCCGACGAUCGUCCUGUGCUACACAUCGUAUGUACCGAAUCGGGAAAAAGGGAAAAAGGGAAAAAGGGGAAAGUAUUAUGUUACGCCGUUCGGAUCUGCAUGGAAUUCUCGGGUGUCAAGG,0.376
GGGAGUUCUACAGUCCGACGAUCAGUCCUGUGCUACACAUCGUAUGUACCGAAUCGGUUUUUGGGUUUUUGGGGUUUUUGGAAAGUAUUAUGUUACGCCGUUCGGAUCUGCACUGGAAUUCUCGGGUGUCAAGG,-0.137
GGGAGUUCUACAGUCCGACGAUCACCAUGCAGGUGGGCAUCUUUGGGAAGUGGGGCAAGGGGGGGAUAGGGAGGGGGGUAACACUUUAGGAACAGGUGGUCCCAGGUCGUUUCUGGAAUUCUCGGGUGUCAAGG,1.24
